Results from different studies.
A part holds a random share of what one study measured. Several values in a cell are separate wells, animals, samples, runs or records.
Chain of UniProt Q9Y6E0 (whole entry, looked up): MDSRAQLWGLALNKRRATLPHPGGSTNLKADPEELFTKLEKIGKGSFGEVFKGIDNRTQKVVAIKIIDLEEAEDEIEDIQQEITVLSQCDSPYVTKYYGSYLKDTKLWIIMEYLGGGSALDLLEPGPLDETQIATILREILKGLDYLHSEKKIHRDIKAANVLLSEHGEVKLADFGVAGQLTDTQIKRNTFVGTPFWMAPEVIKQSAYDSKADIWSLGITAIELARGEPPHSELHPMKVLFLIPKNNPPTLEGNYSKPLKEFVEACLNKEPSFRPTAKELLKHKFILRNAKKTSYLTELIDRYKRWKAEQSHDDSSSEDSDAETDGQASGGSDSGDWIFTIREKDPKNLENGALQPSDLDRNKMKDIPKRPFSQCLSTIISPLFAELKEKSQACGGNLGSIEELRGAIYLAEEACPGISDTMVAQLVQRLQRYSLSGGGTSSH
Chain of UniProt Q07002 (whole entry, looked up): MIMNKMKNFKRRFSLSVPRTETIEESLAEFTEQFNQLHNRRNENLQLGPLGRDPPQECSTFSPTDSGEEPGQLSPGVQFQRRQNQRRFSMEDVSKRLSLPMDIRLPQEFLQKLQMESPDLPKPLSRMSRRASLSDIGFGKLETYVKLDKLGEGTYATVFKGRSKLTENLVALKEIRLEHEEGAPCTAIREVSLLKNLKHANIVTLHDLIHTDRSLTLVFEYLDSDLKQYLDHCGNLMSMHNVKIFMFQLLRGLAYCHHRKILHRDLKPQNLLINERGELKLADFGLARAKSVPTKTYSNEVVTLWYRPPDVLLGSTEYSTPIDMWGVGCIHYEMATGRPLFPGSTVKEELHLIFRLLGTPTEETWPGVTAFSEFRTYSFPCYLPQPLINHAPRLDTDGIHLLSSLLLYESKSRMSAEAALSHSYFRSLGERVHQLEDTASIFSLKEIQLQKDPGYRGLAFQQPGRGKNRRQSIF
Chain of UniProt P42681 (whole entry, looked up): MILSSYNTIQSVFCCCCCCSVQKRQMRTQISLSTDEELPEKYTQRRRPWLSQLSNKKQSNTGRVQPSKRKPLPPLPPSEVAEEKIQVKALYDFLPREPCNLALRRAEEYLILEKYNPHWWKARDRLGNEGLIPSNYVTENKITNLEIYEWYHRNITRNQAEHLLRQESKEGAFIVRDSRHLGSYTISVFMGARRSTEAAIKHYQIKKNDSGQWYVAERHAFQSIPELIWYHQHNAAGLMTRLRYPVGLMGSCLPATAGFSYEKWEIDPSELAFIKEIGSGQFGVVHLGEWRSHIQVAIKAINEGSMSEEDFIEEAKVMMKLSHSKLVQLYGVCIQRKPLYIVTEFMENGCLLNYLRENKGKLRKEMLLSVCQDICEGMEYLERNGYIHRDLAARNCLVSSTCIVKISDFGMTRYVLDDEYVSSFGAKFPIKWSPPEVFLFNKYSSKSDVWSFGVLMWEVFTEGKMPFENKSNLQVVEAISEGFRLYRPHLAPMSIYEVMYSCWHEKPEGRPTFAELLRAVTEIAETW
Chain of UniProt P78362 (whole entry, looked up): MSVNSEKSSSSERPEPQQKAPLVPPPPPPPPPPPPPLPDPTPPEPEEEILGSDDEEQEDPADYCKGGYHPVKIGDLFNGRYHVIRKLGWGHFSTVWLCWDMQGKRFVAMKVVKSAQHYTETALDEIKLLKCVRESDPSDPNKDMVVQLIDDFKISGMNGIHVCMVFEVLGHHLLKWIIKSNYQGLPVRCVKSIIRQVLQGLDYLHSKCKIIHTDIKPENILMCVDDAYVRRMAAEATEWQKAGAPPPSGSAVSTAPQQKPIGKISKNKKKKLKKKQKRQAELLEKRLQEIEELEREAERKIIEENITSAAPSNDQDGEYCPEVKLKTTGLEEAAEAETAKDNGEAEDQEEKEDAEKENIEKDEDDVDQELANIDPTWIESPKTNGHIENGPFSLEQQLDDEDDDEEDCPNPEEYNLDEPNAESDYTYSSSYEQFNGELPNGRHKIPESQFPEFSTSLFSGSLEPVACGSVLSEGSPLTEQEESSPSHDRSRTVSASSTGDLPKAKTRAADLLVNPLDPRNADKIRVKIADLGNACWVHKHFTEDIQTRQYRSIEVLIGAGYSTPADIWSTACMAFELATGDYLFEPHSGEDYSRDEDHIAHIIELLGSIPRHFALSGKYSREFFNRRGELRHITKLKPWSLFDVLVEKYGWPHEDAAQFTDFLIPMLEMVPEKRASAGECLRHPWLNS
Chain of UniProt Q99558 (whole entry, looked up): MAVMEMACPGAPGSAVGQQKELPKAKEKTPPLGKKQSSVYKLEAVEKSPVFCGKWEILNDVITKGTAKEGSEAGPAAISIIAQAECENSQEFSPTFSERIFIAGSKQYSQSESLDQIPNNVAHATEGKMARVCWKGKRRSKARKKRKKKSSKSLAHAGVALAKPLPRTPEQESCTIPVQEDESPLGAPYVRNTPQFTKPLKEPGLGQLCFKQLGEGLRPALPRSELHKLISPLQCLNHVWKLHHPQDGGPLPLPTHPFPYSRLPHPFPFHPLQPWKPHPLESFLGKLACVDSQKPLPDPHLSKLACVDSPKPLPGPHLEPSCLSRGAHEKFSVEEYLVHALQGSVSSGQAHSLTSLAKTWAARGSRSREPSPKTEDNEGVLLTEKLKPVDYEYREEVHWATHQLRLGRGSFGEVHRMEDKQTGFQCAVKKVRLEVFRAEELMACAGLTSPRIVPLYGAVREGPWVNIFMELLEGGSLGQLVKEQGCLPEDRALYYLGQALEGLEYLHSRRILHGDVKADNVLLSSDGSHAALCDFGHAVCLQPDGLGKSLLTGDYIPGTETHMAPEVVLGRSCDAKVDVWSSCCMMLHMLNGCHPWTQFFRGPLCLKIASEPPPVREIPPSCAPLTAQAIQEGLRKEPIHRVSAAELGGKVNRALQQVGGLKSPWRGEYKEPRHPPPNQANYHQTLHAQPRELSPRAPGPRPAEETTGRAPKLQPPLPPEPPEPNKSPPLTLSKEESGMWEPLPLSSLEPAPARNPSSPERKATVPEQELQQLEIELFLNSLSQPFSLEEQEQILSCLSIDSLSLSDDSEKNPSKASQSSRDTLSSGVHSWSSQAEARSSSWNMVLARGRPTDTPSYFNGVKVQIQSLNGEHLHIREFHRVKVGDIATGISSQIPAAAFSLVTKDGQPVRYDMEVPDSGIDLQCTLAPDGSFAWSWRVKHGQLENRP
Chain of UniProt Q9NRH2 (whole entry, looked up): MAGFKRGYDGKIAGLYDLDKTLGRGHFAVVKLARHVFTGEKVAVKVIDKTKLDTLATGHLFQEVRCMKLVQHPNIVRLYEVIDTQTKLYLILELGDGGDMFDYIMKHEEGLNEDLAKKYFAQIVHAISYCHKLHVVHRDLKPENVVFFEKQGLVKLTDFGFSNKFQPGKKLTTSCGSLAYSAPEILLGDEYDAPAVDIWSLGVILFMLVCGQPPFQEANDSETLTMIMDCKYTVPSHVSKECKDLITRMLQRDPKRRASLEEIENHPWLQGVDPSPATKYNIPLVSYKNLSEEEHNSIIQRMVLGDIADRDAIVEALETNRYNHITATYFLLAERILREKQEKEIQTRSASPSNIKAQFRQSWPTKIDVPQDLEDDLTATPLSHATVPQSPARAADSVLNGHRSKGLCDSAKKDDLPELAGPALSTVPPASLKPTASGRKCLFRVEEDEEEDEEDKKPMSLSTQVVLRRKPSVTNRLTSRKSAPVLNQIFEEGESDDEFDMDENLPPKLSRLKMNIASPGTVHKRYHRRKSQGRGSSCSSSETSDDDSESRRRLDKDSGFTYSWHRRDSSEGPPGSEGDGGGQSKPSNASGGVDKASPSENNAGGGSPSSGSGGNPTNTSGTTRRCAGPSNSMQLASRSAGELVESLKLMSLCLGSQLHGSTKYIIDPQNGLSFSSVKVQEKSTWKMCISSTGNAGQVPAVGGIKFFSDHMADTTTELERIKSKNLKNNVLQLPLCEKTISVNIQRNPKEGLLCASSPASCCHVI
Chain of UniProt Q9BWU1 (whole entry, looked up): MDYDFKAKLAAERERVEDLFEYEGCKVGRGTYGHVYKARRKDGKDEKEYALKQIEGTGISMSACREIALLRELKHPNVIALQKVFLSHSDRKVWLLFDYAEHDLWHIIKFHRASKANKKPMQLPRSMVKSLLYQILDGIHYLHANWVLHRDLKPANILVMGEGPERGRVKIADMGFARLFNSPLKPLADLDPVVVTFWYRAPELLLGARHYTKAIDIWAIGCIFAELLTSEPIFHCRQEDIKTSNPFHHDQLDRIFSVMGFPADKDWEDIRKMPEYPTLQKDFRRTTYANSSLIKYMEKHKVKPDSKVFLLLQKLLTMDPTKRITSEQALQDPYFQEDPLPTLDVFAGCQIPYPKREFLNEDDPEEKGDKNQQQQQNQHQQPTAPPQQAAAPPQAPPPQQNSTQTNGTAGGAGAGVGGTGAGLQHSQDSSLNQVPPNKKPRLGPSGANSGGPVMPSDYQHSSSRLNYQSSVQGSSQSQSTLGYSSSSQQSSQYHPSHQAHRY

Block 1
Structure (SMILES): CCN1/C(=C/C=C2\CCCC(/C=C/C3=[N+](CC)c4ccccc4C3(C)C)=C2NCCCCCCCCN2CCC(Nc3nc4ccccc4n3Cc3ccc(F)cc3)CC2)C(C)(C)c2ccccc21
Cell line: U-87 MG
Concentration: concentration not given
Relative to: DMSO
measured	log2 fold change
ILDR2 mRNA	-2.73
USP36 mRNA	1.06
PELI1 mRNA	2.12
FGF17 mRNA	3.31
KATNAL1 mRNA	-0.994
ACTN4 mRNA	-1.02
HSPA6 mRNA	6.74
PPIC mRNA	-0.941
TTC7A mRNA	-0.929
PPP1R3C mRNA	2.26
CCPG1 mRNA	1.4
CDRT1 mRNA	1.05
WTAP mRNA	1.09
ZBTB42 mRNA	-0.919
KCNJ15 mRNA	-1.67
GBP1 mRNA	-2.92

Block 2
Organism: Arabidopsis thaliana
Strain: Col-0
Concentration: 6.25 µg/mL
Setting: seed germination, single repetition
Structure (SMILES)	hypocotyl length
O=C(O)C1(O)Oc2cc(Cl)ccc2N(Cc2ccccc2)C1=O (stereo not shown)	2.04 cm and 2.08 cm and 2.06 cm and 2.05 cm
CC(C)=CCN1C(=O)C(O)(C(=O)O)Oc2cc(F)ccc21 (stereo not shown)	2.03 cm and 1.96 cm and 2.04 cm and 1.95 cm and 2.02 cm
O=C(O)C1Oc2cc(F)ccc2N(Cc2ccccc2)C1=O (stereo not shown)	2.29 cm and 2.3 cm and 2.32 cm and 2.34 cm
Cc1ccc2c(c1)OC(O)(C(=O)O)C(=O)N2Cc1ccccc1 (stereo not shown)	2.03 cm and 2.02 cm and 2.05 cm and 2.04 cm
CN1C(=O)C(O)(C(=O)O)Oc2cc(F)ccc21 (stereo not shown)	2.2 cm and 2.19 cm and 2.1 cm and 2.03 cm and 2.08 cm

Block 3
Structure (SMILES): COc1cc(-c2nc3ccc(C(=O)NCCCN(C)C)cc3n2C2CCC2)cc(OC)c1OC
Concentration: 1 µM
target	effect on	technique	relative to	remaining binding [%]
MAP3K14 (Homo sapiens, UniProt Q99558)	binding	competition with immobilised ligand		85
STK24 (Homo sapiens, UniProt Q9Y6E0)	binding	competition with immobilised ligand		80
CDK18 (Homo sapiens, UniProt Q07002)	binding	competition with immobilised ligand		100
EGFR (Homo sapiens, UniProt P00533, L858R)	binding	competition with immobilised ligand		69
TXK (Homo sapiens, UniProt P42681)	binding	competition with immobilised ligand		98
Ribosomal protein S6 kinase alpha-1, C-terminal kinase domain (RPS6KA1, Homo sapiens, UniProt Q15418)	binding	competition with immobilised ligand		92
SNRK (Homo sapiens, UniProt Q9NRH2)	binding	competition with immobilised ligand		70
CDK19 (Homo sapiens, UniProt Q9BWU1)		KINOMEscan	control	76
SRPK2 (Homo sapiens, UniProt P78362)	binding	competition with immobilised ligand		100

Further values, each from its own experiment
Structure (SMILES)	target or system	test	test system	setting	quantity	result
Cc1ccc(O)c(C)c1-c1cnc2[nH]c(-c3cnc(N4CCC(CN5CCN(c6c(F)cc(NC7CCC(=O)NC7=O)cc6F)CC5)CC4)nc3)cc2c1C#N (racemic)	HCC1569	in-cell western, measured: CDK1 phospho-Thr14		333.33 nM	pCDK1 (Thr14) level	81.2% and 84.4%
Cc1ccc(O)c(C)c1-c1cnc2[nH]c(-c3cnc(N4CCC(CCN5CCN(c6ccc7c(c6)C(=O)N(C6CCC(=O)NC6=O)C7=O)CC5)CC4)nc3)cc2c1C#N (racemic)	HCC1569	in-cell western, measured: CDK1 phospho-Thr14		333.33 nM	pCDK1 (Thr14) level	69.4 RLU and 70.6 RLU
Cc1ccc(O)c(C)c1-c1cnc2[nH]c(-c3cnc(N4CCC(CN5CCN(c6ccc(NC7CCC(=O)NC7=O)c(F)c6)CC5)CC4)nc3)cc2c1C#N (racemic)	HCC1569	in-cell western, measured: CDK1 phospho-Thr14		0.457 nM	pCDK1 (Thr14) level	10.5% and 11.1%
Cc1ccc(O)c(C)c1-c1cnc2[nH]c(-c3cnc(N4CCC5(CC4)CC(N4CCN(c6ccc(N[C@H]7CCC(=O)NC7=O)cc6F)CC4)CO5)nc3)cc2c1C#N (single isomer, unassigned)		KINOMEscan	403 non-mutant kinase panel	1000 nM, percent of control below 10	number of kinases bound	1

Excerpt of the above (further values, each from its own experiment):
Structure (SMILES)	target or system	test	test system	setting	quantity	result
Cc1ccc(O)c(C)c1-c1cnc2[nH]c(-c3cnc(N4CCC(CN5CCN(c6c(F)cc(NC7CCC(=O)NC7=O)cc6F)CC5)CC4)nc3)cc2c1C#N (racemic)	HCC1569	in-cell western, measured: CDK1 phospho-Thr14		333.33 nM	pCDK1 (Thr14) level	81.2% and 84.4%
Cc1ccc(O)c(C)c1-c1cnc2[nH]c(-c3cnc(N4CCC(CCN5CCN(c6ccc7c(c6)C(=O)N(C6CCC(=O)NC6=O)C7=O)CC5)CC4)nc3)cc2c1C#N (racemic)	HCC1569	in-cell western, measured: CDK1 phospho-Thr14		333.33 nM	pCDK1 (Thr14) level	69.4 RLU and 70.6 RLU
Cc1ccc(O)c(C)c1-c1cnc2[nH]c(-c3cnc(N4CCC5(CC4)CC(N4CCN(c6ccc(N[C@H]7CCC(=O)NC7=O)cc6F)CC4)CO5)nc3)cc2c1C#N (single isomer, unassigned)		KINOMEscan	403 non-mutant kinase panel	1000 nM, percent of control below 10	number of kinases bound	1
